# Published values of several laboratories.
# “And” joins repeats or separate records; there may be more than shown.
Compound,tested on,test,system,conditions,how to read,endpoint,value
N=C(N)NCCC[C@@H]1NC(=O)[C@H](CCCNC(=N)N)NC(=O)[C@@H](CCCNC(=N)N)NC(=O)[C@@H](CCCNC(=N)N)NC(=O)[C@@H](C(c2ccccc2)c2ccccc2)NC(=O)[C@@H](Cc2c[nH]c3ccccc23)NC(=O)[C@@H](C(c2ccccc2)c2ccccc2)NC1=O,HEK293,"cell growth or viability, MTS",,"200 µg/mL, 24 h",,viability,55%
c1cc2nc(c1)-c1cccc(n1)CCCc1ccc(cc1)OCCCCCCOc1ccc(cc1)CCC2,HEK293,"cell growth or viability, MTT",,"50 µM, 24 h",,viability,74.5%
CN1CCCNC(=O)c2cccc(c2)C(=O)NCCCN(C)CCCNc2cccc3c2C(=O)c2cccc(c2C3=O)NCCC1,Ca9-22,"cell growth or viability, CCK-8",,"0.5 µM, 48 h",,viability,47.7%
CC[C@H](C)[C@@H](C(=O)N[C@@H](Cc1ccc(O)cc1)C(=O)N1CCC[C@H]1C(=O)N[C@@H](Cc1ccccc1)C(=O)O)n1cc(C(Cc2ccc(O)cc2)NC(=O)[C@@H](NC(=O)[C@H](CCCNC(=N)N)NC(=O)[C@@H](N)CC(=O)O)C(C)C)nn1 (stereo partly shown),HEK293,"cell growth or viability, MTT",,"100 µM, 24 h",,viability,81.8%
COc1cc(N2CCN(C(=O)C3CCCN3)CC2)ccc1Nc1ncc(Cl)c(Nc2ccccc2P(C)(C)=O)n1 (stereo not shown),NCI-H3122,"cell growth or viability, CCK-8",,"25 nM, 48 h",,viability,61% and 59%
O=CCNCCOn1c(=O)n(OCCNCCO)c(=O)n(OCCNCCOn2c(=O)n(OCCNCCO)c(=O)n(OCCNCCO)c2=O)c1=O,HUVEC,"cell growth or viability, MTT",,"50 µg/mL, 72 h",,viability,11.5%
COC1CN([C@H]2CC[C@H]([C@@]3(C)Oc4c(Cl)cc(C(=O)NCc5c(SC)cc(C)[nH]c5=O)c(C)c4O3)CC2)C1,,"RNA-seq, item: JUP","human cancer patients, whole blood","dose not given, 24 h, PRC2 target gene",reference: pretreatment sample,log2 fold change,1.41
NC(=O)c1cccc(NC(=O)c2cc(-c3ccccc3)n(-c3ccccc3)n2)c1,Vero,cell growth or viability,,12.5 µM,,viability,> 95%
Cc1ncsc1-c1ccc(C(C)NC(=O)C2CC(O)CN2C(=O)C(NC(=O)CCCCCCCCCCN2CCCC(Nc3ncc(Cl)c(Nc4ccccc4S(=O)(=O)C(C)C)n3)C2)C(C)(C)C)cc1 (stereo not shown),22Rv1,"RNA-seq, item: MBTD1 mRNA",,concentration not given,reference: DMSO,log2 fold change,-1.45
O=C(Nc1cccc(CNc2ncccn2)c1)c1cc(-c2ccccc2)n(-c2ccccc2)n1,Vero,cell growth or viability,,12.5 µM,,viability,> 95%
CC(=O)N[C@@H](Cc1c[nH]c2ccccc12)C(=O)N[C@@H](Cc1c[nH]c2ccccc12)C(=O)N[C@@H](Cc1c[nH]c2ccccc12)C(=O)N[C@@H](Cc1c[nH]c2ccccc12)C(=O)NCCCC[C@@H]1NC(=O)[C@H](CCCNC(=N)N)NC(=O)[C@H](CCCNC(=N)N)NC(=O)[C@H](CCCNC(=N)N)NC(=O)[C@H](CCCNC(=N)N)NC(=O)[C@H](CCCNC(=N)N)NC1=O,CCRF-CEM,MTS,,"up to 10 µM, 24 h",,viability,≥ 89%
N=C(N)NCCC[C@@H]1NC(=O)[C@H](CCCNC(=N)N)NC(=O)[C@@H](CCCNC(=N)N)NC(=O)[C@@H](CCCNC(=N)N)NC(=O)[C@@H](Cc2ccc3ccccc3c2)NC(=O)[C@H](Cc2c[nH]c3ccccc23)NC(=O)[C@@H](Cc2ccc3ccccc3c2)NC1=O,human liver cells,MTS,,"200 µg/mL, 24 h",,viability,74 to 77%
COc1cc(N2CCN(C(=O)CCOCCNC(=O)[C@@H]3CCCN3)CC2)ccc1Nc1ncc(Cl)c(Nc2ccccc2P(C)(C)=O)n1,NCI-H3122,CCK-8,,"0.75 µM, 48 h",,viability,44% and 39% and 50%

# A few entries again:
Compound,tested on,test,system,conditions,how to read,endpoint,value
CC[C@H](C)[C@@H](C(=O)N[C@@H](Cc1ccc(O)cc1)C(=O)N1CCC[C@H]1C(=O)N[C@@H](Cc1ccccc1)C(=O)O)n1cc(C(Cc2ccc(O)cc2)NC(=O)[C@@H](NC(=O)[C@H](CCCNC(=N)N)NC(=O)[C@@H](N)CC(=O)O)C(C)C)nn1 (stereo partly shown),HEK293,"cell growth or viability, MTT",,"100 µM, 24 h",,viability,81.8%
